Experimental data pooled from the literature.
A part holds a random share of what one study measured. Values joined by “and” are separate records of one study, mostly repeats; a detail may differ.

Sample 1
Organism: Sarcocystis neurona
Read-out: parasite activity
Tested at: concentration not given
| Structure (SMILES) | activity class |
| --- | --- |
| COc1ccc(CCN)cc1OC | inactive |
| CC(C)CC(N(C)C)C1(c2ccc(Cl)cc2)CCC1.Cl (stereo not drawn) | inactive |
| CC(NC(C)(C)C)C(=O)c1cccc(Cl)c1.Cl (stereo not drawn) | inactive |
| Cl.O.Oc1ccc2c3c1O[C@H]1c4[nH]c5ccccc5c4C[C@@]4(O)[C@@H](C2)N(CC2CC2)CC[C@]314 | inactive |
| CCN(CC)CCOC(=O)C(O)(c1ccccc1)c1ccccc1.Cl | inactive |
| CCCCC/C=C\C/C=C\C/C=C\C/C=C\CCCC(=O)Nc1ccc(O)cc1 | inactive |
| CN1CC[C@@]23CCCC[C@@H]2[C@@H]1Cc1ccc(O)cc13.O=C(O)C(O)C(O)C(=O)O | inactive |
| Cl.Oc1cc2c(cc1O)[C@H]1c3ccccc3CN[C@@H]1CC2 | inactive |

Sample 2
Target: Muscarinic acetylcholine receptor M1 (CHRM1, Homo sapiens, UniProt P11229)
Chain of UniProt P11229 (whole entry, looked up): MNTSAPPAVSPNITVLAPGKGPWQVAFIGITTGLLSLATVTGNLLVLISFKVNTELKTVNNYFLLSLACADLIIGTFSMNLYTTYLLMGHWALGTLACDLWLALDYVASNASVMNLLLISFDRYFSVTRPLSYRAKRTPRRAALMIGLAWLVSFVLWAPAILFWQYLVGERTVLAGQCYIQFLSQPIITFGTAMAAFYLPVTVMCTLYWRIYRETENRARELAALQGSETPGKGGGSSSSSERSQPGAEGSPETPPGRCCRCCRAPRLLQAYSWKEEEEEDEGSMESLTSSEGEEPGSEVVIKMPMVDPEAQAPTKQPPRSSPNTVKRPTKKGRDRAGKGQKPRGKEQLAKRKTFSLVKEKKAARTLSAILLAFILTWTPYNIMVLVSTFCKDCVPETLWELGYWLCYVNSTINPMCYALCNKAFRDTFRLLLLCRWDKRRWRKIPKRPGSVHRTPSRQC
Read-out: ligand displacement
Tested at: 10 µM
| SMILES | inhibition |
| --- | --- |
| C[C@@H]1CN(c2cc(-c3n[nH]c4ccc(OC5(C)CC5)cc34)ncn2)C[C@H](C)O1 | 3.04% |
| Nc1nc(NCc2ccccc2)nc(-c2ccccc2CO)n1 | 23.6% |
| CO[C@H]1CC[C@H](CNc2ccc(S(=O)(=O)NC(=O)c3ccc(N4CCN(CC5=C(c6ccc(Cl)cc6)CC(C)(C)CC5)CC4)cc3Oc3cnc4[nH]ccc4c3)cc2[N+](=O)[O-])CC1 | 4.59% |
| Nc1nc(NCc2ccccc2)nc(-c2cccc(CO)c2)n1 | 10.8% |
| O=C(N[C@H]1CCCCC/C=C\C2C[C@@]2(C(=O)O)NC(=O)[C@@H]2C[C@@H](Oc3ccncc3)CN2C1=O)OC1CCCC1 (stereo partly drawn) | 14.1% |
| NS(=O)(=O)c1cc(NC(=O)Cc2ccccc2)ccc1Oc1cccc(Cl)c1 | 11.4% |

Further values, each from its own experiment
| SMILES | cell line | test | system | setting | viability |
| --- | --- | --- | --- | --- | --- |
| N#Cc1c(Oc2ccc(F)c(NC(=O)Cc3cccc(C(F)(F)F)c3)c2)ccc2nc(NC(=O)C3CC3)sc12 | L929 | necroptosis protection, CCK-8 | – | 20 µM, with: TNF-α-induced | 86.3% |
| CC(C)N(CCNC(=O)CN1CCCC1=O)C(C)C | HaCaT | – | – | 100 µM, 60 h | 114% |
| CC(C)(C)c1nc(-c2cccc(NS(=O)(=O)c3c(F)cccc3F)c2F)c(-c2ccnc(N)n2)s1 | L929 | – | MEM 10% FBS | 25 µM | 51% and 55.2% and 54.4% |
| CC[C@H](C)c1nc2cc(Nc3ccnc4ccc(S(=O)(=O)C(C)C)cc34)ccc2s1 | L929 | necroptosis protection, CCK-8 | – | 2.5 µM, with: TNF-α plus zVAD | 42.9% |

A few entries again (sample 1):
| Structure (SMILES) | activity class |
| --- | --- |
| CC(C)CC(N(C)C)C1(c2ccc(Cl)cc2)CCC1.Cl (stereo not drawn) | inactive |
| CC(NC(C)(C)C)C(=O)c1cccc(Cl)c1.Cl (stereo not drawn) | inactive |
| Cl.O.Oc1ccc2c3c1O[C@H]1c4[nH]c5ccccc5c4C[C@@]4(O)[C@@H](C2)N(CC2CC2)CC[C@]314 | inactive |
